Measured values gathered from unrelated publications.
Each numbered part is a random draw from the data of one study; scales do not carry over between parts.

Series 1
Target: Prothrombin, mature alpha-thrombin (F2, Homo sapiens, UniProt P00734)
Technique: aptamer microarray, sandwich
Form: DNA with 2'F-ANA
Matrix: in vitro
Tested at: 200 nM
Setting: whole 15-mer aptamer, many near background
Together with: Cy3 exosite-II aptamer, 400 nM
Reading: higher = stronger binding
Sequence: GGTTGGTGTGGTTGG
Modification	mean fluorescence intensity [a.u.]
2'F-ANA at 1 8 10 15	58.3
2'F-ANA at 1 6 7 9 11 13 15	107
2'F-ANA at 3 5 6 8 9 15	109
2'F-ANA at 2 3 7 8 9 10 11 12 14	271
2'F-ANA at 1 4 6 9 10 11 12	60.1
2'F-ANA at 2 3 4 5 6 7 8 9 12 13 14	72.4
2'F-ANA at 1 3 5 7 8 10 11 12 13 14	48.9

Series 2
Target: RNA binding protein fox-1 homolog 2, RRM domain, GST-SBP tag (RBFOX2, Homo sapiens, UniProt O43251-10, residues 100-194)
Technique: RNA Bind-n-Seq
Form: RNA
Matrix: in vitro
Tested at: 365 nM
Setting: natural RNA segment, single round, ends assumed
Relative to: no-protein control
Reading: higher = stronger binding
All sequences stand within: GGGAGUUCUACAGUCCGACGAUC … UGGAAUUCUCGGGUGCCAA
Construct (chain): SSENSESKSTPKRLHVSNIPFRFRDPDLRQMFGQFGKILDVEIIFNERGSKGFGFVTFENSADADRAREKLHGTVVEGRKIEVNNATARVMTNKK
Sequence	RBNS enrichment (R)
GUCUUGAGAGCACAGACUAACACUUACCAAAUGAGGGAACUCUUGGCCCAUACUAAGGCUCUUCUGGGCUCCAGCACUCUUAAGUUAUUUUAAGAAUUCUCACUUGGCCU	0.154
AAAAGGAGAAAGUGAGAGGAGAGUUCUCUGCAUCCUCCCUCCUUGCUUGUCACCCAGUUGCCUUUAAACCAAAUUCUAACCAGCCUAUCCCCAGGUAGGGGGACGUUGGU	0.224
CCCCUUCUCUGUCCCCCAUUCUCUGAAUGCUGCUUUCUCUGGCUUGUUUCCUACAGUGGGGGCCUGUGGGGUUGAGUCUUGAGGAAUCCCCUCAAAUGAGAAGGCCUUGG	0.531
UGUGAAACCCCAUCUCUGCCAAAAAUACAAAAGUUAGCCGGGCGUAGUGGCACAUGCCUGUAAUCCCAGCUACCCGGGGAGGCUGAGGCAGGAGAAUUGCUUGAACUCAG	0.565
AGGAUUCAGAGUAAAACUCAAAGGAUUCAGUUUGAGCCUAGAAUGAUGGUUAGACUUGUAGUCACUGGGCUUUUGUUUUGCUUUAUGGAAAUCAUUGAAGGUCUGGAUCC	1.98
CAGAAAAGGCUUCACUCGCUGGGAACGUCAACCCAGCGAGAAAGGAGGGGAAGCCCCUUCUCCGGGGACCUUAUCUGUGGACUCAGGAAUGAUGGUGUUUAUUGCAAAUG	0.69

Series 3
Target: Fragile X messenger ribonucleoprotein 1, C-terminal low-complexity region (Fmr1, Mus musculus, UniProt P35922)
Technique: RNA Bind-n-Seq
Form: RNA
Matrix: in vitro
Tested at: 200 nM
Setting: whole 134-nt RNA, ends assumed
Together with: 150 mM LiCl
Relative to: input library
Reading: higher = stronger binding
All molecules: 7-deaza-guanosine replaces G
All sequences stand within: GGGAGUUCUACAGUCCGACGAUC … UGGAAUUCUCGGGUGUCAAGG
Sequence	log2 enrichment
UGGCCCUGGUGGCAUGCGGGGAUGAAGAGGUGGCCUCAUGGAUCGUGGUGGUCCCGGUGGAAUGUUCAGAGGUGGCCGUGGUGGAGACAG	-0.208
UAACUUUAGAGGAGGAUCUGAUGGAUAUGGCAGUGGACGUGGAUUUGGGGAUGGCUAUAAUGGAUAUGGAGGAGGACCUGGAGGUGGCAA	0.888
CACAGACAACAGGCACCCACACAGACACAGAGGGAAGGGGUUGGGAUGGGGACAGGGUGCACAGCAGGGCGGGGUAGGACCCCAGCCCCU	0.231
UGGGAGGUGGAUUUUGUUUAUUUUUUUAGCUCAUUUCCAGGGGUGGGAAUUUUUUUUUAAUAUGUGUCAUAAAUAAAGUUGUUUUUGAAA	0.131
GAAAUCCACAGGAAAGUGAUGUCACAAAACUUCACCAACUGCCACACCAAGAUUCGCCAUGUUGAUGCUCAUGCCACGCUAAAUGAUGGU	0.961
UGGGAGGUGGAUUUUGUUUAUUUUUUUAGCUCAUUUCCAGGGGUGGGAAUUUGUUUUUAAUAUGUGUCAUGAAUAAAGUUGUUUUUGAAA	-0.582
GUUGUAGACACUCCUGGGAUCCUGGACCACCCUCUGGAGGAUAGGAACACCAUCGAGAUGCAGGCCAUCACUGCCCUGGCCCACCUCCGU	1.5
UGGCCCUGGUGGCAUGCGGGGAGGAAGAGGUGGCCUCAUGGAUCGUGGUGGUCCCGGUGGAAUGUUCCGAGGUGGCCGUGGUGGAGACAG	-0.754

Further values, each from its own experiment
Molecule	target	assay	system	conditions	how to read	endpoint	result
PhoQ, residues 284 288 289 292 302 303 AGGCYF	PhoP, residues 12 14 15 18 19 SMASL (Escherichia coli, UniProt P23836)	Sort-seq, measured: YFP reporter	E. coli	PhoQ-PhoP variant library, together with: 10 µM Mg2+	relative to: high Mg2+ state, higher = stronger signaling	fold induction	3.46
